# Experimental data collected from several papers.
# ± gives the spread as reported.
SMILES,cell line,assay,setting,IC50
CC(C)C[C@H](NC(=O)[C@H](C)NC(=O)[C@H](CCCCN)NC(=O)[C@H](C)NC(=O)[C@H](C)NC(=O)[C@@H]1CSCc2ccccc2CSC[C@H](NC(=O)[C@H](CCCCN)NC(=O)[C@H](Cc2ccccc2)NC(=O)CN)C(=O)N[C@@H](CC(C)C)C(=O)N[C@@H](CC(C)C)C(=O)N[C@@H](CCCCN)C(=O)N1)C(=O)N[C@H](C(=O)N[C@@H](CCCCN)C(=O)N[C@H](C(=O)N[C@H](C(=O)N[C@@H](CC(C)C)C(=O)N[C@@H](Cc1ccccc1)C(N)=O)C(C)C)[C@@H](C)O)C(C)C,U87,"cell proliferation, CCK-8",48 h,16000 nM
Cc1cc(C)c(-n2ccn(-c3c(C)cc(C)cc3C)c2=[Se])c(C)c1.[Cl][Au],A2780,"cell growth or viability, MTT",72 h,400 nM
NC1CC1c1ccc(NC(=O)c2ccc(-c3ccccc3)cc2)cc1 (stereo not shown),MV4-11 (AML),,,2300 ± 40 nM
O=C(Nc1ccc(Br)cc1)c1cc(Br)cc(Br)c1O,LNCaP,"cell growth or viability, resazurin",72 h,4840 nM
O=C1[O][Pt]2([OH])([OH])([NH]C3CCCCC3[NH]2)[O]C1=O (stereo not shown),IMR-90,"cell growth or viability, resazurin",72 h,> 100000 nM
O=C(Cc1ccc2ccccc2c1)N[C@H](Cc1ccccc1)C(=O)N[C@H](Cc1ccccc1)C(=O)N[C@H](Cc1ccc(O)cc1)C(=O)N[C@H](Cc1ccc(O)cc1)C(=O)O,HS5,"cell growth or viability, MTT",,> 500 µg/mL
CC(C)C[C@@H](NC(=O)CCNc1ccc([N+](=O)[O-])c2nonc12)C(=O)N[C@H](CC(C)C)C(=O)N[C@H](CC(C)C)C(=O)N[C@H](CC(C)C)C(=O)N[C@H](Cc1ccc(OP(=O)(O)O)cc1)C(=O)O,SJSA-1,"cell viability, MTT",24 h,69000 nM
CC(C)C[C@H](NC(=O)[C@H](CC(C)C)NC(=O)[C@H](CCC(=O)O)NC(=O)[C@H](CCC(=O)O)NC(=O)[C@H](CC(C)C)NC(=O)[C@H](Cc1c[nH]cn1)NC(=O)[C@H](Cc1c[nH]cn1)NC(=O)[C@H](CC(C)C)NC(=O)[C@H](CC(C)C)NC(=O)[C@H](CCC(=O)O)NC(=O)[C@H](CCC(=O)O)NC(=O)[C@@H](N)CC(C)C)C(=O)N[C@@H](Cc1c[nH]cn1)C(=O)N[C@@H](Cc1c[nH]cn1)C(N)=O,HK-2,"cell growth or viability, MTT",pH 7.4,> 100000 nM
O=C(Cc1ccc2ccccc2c1)N[C@H](Cc1ccccc1)C(=O)N[C@H](Cc1ccccc1)C(=O)N[C@H](Cc1ccc(O)cc1)C(=O)N[C@H](Cc1ccc(OP(=O)(O)O)cc1)C(=O)O,A2780cis,"cell growth or viability, MTT",,189 µg/mL
CC[C@@]1(O)C(=O)OCc2c1cc1n(c2=O)Cc2c-1nc1cc(F)c(C)c3c1c2[C@@H](NC(=O)CCCN)CC3,KPL4,"cell growth or viability, ATP luminescence",5 days,33.5 nM
[Cl][Au].[Se]=c1n(C2CCCCC2)ccn1C1CCCCC1,A2780,cell growth or viability,"72 h, 3D culture",2200 nM
C[C@H]1C(OCCCCCCC[P+](c2ccccc2)(c2ccccc2)c2ccccc2)O[C@@H]2O[C@@]3(C)CCC4[C@H](C)CCC1[C@]42OO3 (stereo partly shown),SK-OV-3,"cell growth or viability, MTT",72 h,98 nM
O=C(Cc1ccc2ccccc2c1)N[C@H](Cc1ccccc1)C(=O)N[C@H](Cc1ccc(O)cc1)C(=O)N[C@H](Cc1ccccc1)C(=O)N[C@H](Cc1ccc(O)cc1)C(=O)O,A2780cis,"cell growth or viability, MTT",,> 500 µg/mL
CC(C)C[C@H](NC(=O)[C@H](CCCCN)NC(=O)[C@H](CC(C)C)NC(=O)[C@H](CC(C)C)NC(=O)[C@H](CCCCN)NC(=O)[C@H](CCCCN)NC(=O)[C@H](CC(C)C)NC(=O)[C@H](CC(C)C)NC(=O)[C@H](CCCCN)NC(=O)[C@H](CC(C)C)NC(=O)[C@H](CC(C)C)NC(=O)[C@H](CCCCN)NC(=O)[C@H](CCCCN)NC(=O)[C@H](CC(C)C)NC(=O)[C@@H](N)CSSC[C@H](N)C(=O)N[C@@H](CC(C)C)C(=O)N[C@@H](Cc1c[nH]cn1)C(=O)N[C@@H](CCC(=O)O)C(=O)N[C@@H](CC(C)C)C(=O)N[C@@H](CC(C)C)C(=O)N[C@@H](CCC(=O)O)C(=O)N[C@@H](Cc1c[nH]cn1)C(=O)N[C@@H](CC(C)C)C(=O)N[C@@H](Cc1c[nH]cn1)C(=O)N[C@@H](CCC(=O)O)C(=O)N[C@@H](CC(C)C)C(=O)N[C@@H](CC(C)C)C(=O)N[C@@H](CCC(=O)O)C(=O)N[C@@H](Cc1c[nH]cn1)C(N)=O)C(N)=O,RG,"cell viability, MTT","0.5 h, pH 7.4",> 100000 nM
"C=C(C)CC(OC)C(O)C(=O)NC(OC)C1CC(=C)C(C)(C)C(CC(O)C(C)C2Cc3c(C)c(O)cc(O)c3C(=O)O2)O1 (single isomer, unassigned; (+))",A2058,cell growth or viability,,0.7 nM
CC(C)C[C@H](NC(=O)[C@H](CC(C)C)NC(=O)[C@H](Cc1c[nH]cn1)NC(=O)[C@H](CCC(=O)O)NC(=O)[C@H](CC(C)C)NC(=O)[C@H](Cc1c[nH]cn1)NC(=O)[C@H](CCC(=O)O)NC(=O)[C@H](CC(C)C)NC(=O)[C@H](CC(C)C)NC(=O)[C@H](Cc1c[nH]cn1)NC(=O)[C@H](CCC(=O)O)NC(=O)[C@@H](N)CC(C)C)C(=O)N[C@@H](CCC(=O)O)C(=O)N[C@@H](Cc1c[nH]cn1)C(N)=O,RG,"cell viability, MTT","0.5 h, pH 6.0",> 100000 nM
"C=C(C)CC(OC)C(O)C(=O)NC(OC)C1CC(=NOC)C(C)(C)C(CC(O)C(C)C2Cc3c(C)c(O)cc(O)c3C(=O)O2)O1 (single isomer, unassigned; (+))",A2058,cell growth or viability,,0.5 nM
CC(C)C[C@H](NC(=O)[C@H](CCCCN)NC(=O)[C@H](CC(C)C)NC(=O)[C@H](CC(C)C)NC(=O)[C@H](CCCCN)NC(=O)[C@H](CCCCN)NC(=O)[C@H](CC(C)C)NC(=O)[C@H](CC(C)C)NC(=O)[C@H](CCCCN)NC(=O)[C@H](CC(C)C)NC(=O)[C@H](CC(C)C)NC(=O)[C@H](CCCCN)NC(=O)[C@H](CCCCN)NC(=O)[C@H](CC(C)C)NC(=O)[C@@H](N)CSSC[C@H](N)C(=O)N[C@@H](CC(C)C)C(=O)N[C@@H](CCC(=O)O)C(=O)N[C@@H](CCC(=O)O)C(=O)N[C@@H](CC(C)C)C(=O)N[C@@H](CC(C)C)C(=O)N[C@@H](Cc1c[nH]cn1)C(=O)N[C@@H](Cc1c[nH]cn1)C(=O)N[C@@H](CC(C)C)C(=O)N[C@@H](CCC(=O)O)C(=O)N[C@@H](CCC(=O)O)C(=O)N[C@@H](CC(C)C)C(=O)N[C@@H](CC(C)C)C(=O)N[C@@H](Cc1c[nH]cn1)C(=O)N[C@@H](Cc1c[nH]cn1)C(N)=O)C(N)=O,RG,"cell viability, MTT","0.5 h, pH 7.4",> 100000 nM
NC(=S)N/N=C/c1ccc(OCc2cccc(F)c2)cc1,IMR-32,"cell growth or viability, MTT",24 h,14.3 µg/mL
COc1cc(C=CC(=O)CC(=O)C=Cc2ccc(OC(=O)CCC(=O)OC3OC4OC5(C)CCC6C(C)CCC(C3C)C46OO5)c(OC)c2)ccc1OC(=O)CCC(=O)OC1OC2OC3(C)CCC4C(C)CCC(C1C)C24OO3 (stereo not shown),RPMI-7951,"cell viability, MTT","24 h, with: deferoxamine 20 µM, 1 h before",1180 ± 700 nM
CC[C@@H](C(=O)[C@@H](C)[C@@H](O)[C@H](C)[C@@H]1O[C@@H]([C@@H](CC)C(=O)O)CC[C@@H]1C)[C@H]1O[C@]2(C=C[C@H](N)[C@]3(CC[C@@](C)([C@H]4CC[C@](O)(CC)[C@H](C)O4)O3)O2)[C@H](C)C[C@@H]1C,HMLER CD24high/CD44low,CellTiter-Blue,72 h,> 50000 nM
CC(=O)c1nn(-c2ccc([N+](=O)[O-])cc2)c2nc3nc(-c4ccccc4)cc(-c4ccc5ccccc5n4)c3c(=O)n12,RPE-1,"cell growth or viability, MTT",48 h,24100 nM
